# Assay results of several laboratories.
# Each line is one published result; not all experiments were run side by side. Several values in a cell are separate wells, animals, samples, runs or records. Numbers after ± are the reported error.
SMILES,cell line,assay,test system,setting,how to read,endpoint,result
Cc1[nH]c2ccccc2c1-c1csc(-c2c[nH]c3ccccc23)n1,HPV18 keratinocyte raft cultures,BrdU incorporation,mid strata,concentration not given,,host DNA replication,no inhibition
COC[C@@H](CC(C)C)NC(=O)c1ccc(C)c(C)c1,primary human lymphocytes,,,"280 µg/mL, 4 (unit not given), with S9",,mean mitotic index,10.9
O=C(c1ccc(C(=O)N2CCC(N3CCCC3)CC2)c(Nc2ccccc2)c1)N1CCC(N2CCCC2)CC1,HEK-293T/17,CellTiter-Glo,,"up to 100 µM, 24 h",,viability,not toxic
Cc1ccc(S(=O)(=O)Nn2c(N)c(C#N)cc(C#N)c2=O)cc1,BGM,,,72 h,,maximum non-toxic concentration,90 µg/mL
COc1ccc(S(=O)(=O)ON=C2C=C(C)C(=O)C(C)=C2)cc1,ZR-75-1,cell viability,,,,CC50,8.91 µM
Cc1nn(C(C)c2nnc(Nc3ccn(Cc4ccccc4)n3)s2)c(C)c1Br (centres unmarked),TZM-bl,"cell viability, PrestoBlue",,,,CC50,> 12.5 µM
Nc1nc(NS(=O)(=O)c2ccccc2)nc(-c2ccc(F)cc2)c1-c1nc2ccccc2s1,BGM,cytotoxicity,,72 h,,maximum non-toxic concentration,100 µg/mL
Cc1ccc(S(=O)(=O)Nn2c(N)c(-c3nc4ccccc4s3)c3[nH]nc(N)c3c2=O)cc1,BGM,,,72 h,,maximum non-toxic concentration,90 µg/mL
CCCCCCCCCCCC(=O)Oc1c(C)c(O)c(C(=O)/C=C/c2ccccc2)c(OC)c1C,normal human liver cell line,"cytotoxicity, SRB",,72 h,,IC50,> 50 µM
CCOC(=O)c1cc(C#N)c(=O)n(NS(=O)(=O)c2ccc(C)cc2)c1N,BGM,,,72 h,,maximum non-toxic concentration,90 µg/mL
N#C/C=C/c1ccc2c(S(=O)(=O)n3nc(Nc4ccc(C#N)c(Cl)c4)nc3N)cccc2c1,TZM-bl,CellTiter-Blue,,48 h,,CC50,~5 µM
Cc1cc(C(=O)NC(C)(C)COc2cccc3c2C(N)=NS(=O)(=O)N3)cc(C)n1,human peripheral blood lymphocytes,"CBPI, concurrent micronucleus test",,"500 µg/mL, 4 h, together with: rat liver S9",reference: vehicle control,cytotoxicity,-5%
COc1ccc(NC(=S)N/N=C/c2cccc3cc4ccccc4nc23)cc1,HeLa,annexin V/PI,,"IC12.5, 48 h, together with: NAC",,viable cells,87.45 ± 0.65%
Cc1ccc(-c2nc(NS(=O)(=O)c3ccccc3)nc(N)c2-c2nc3ccccc3s2)cc1,BGM,cytotoxicity,,72 h,,maximum non-toxic concentration,90 µg/mL
Cc1noc(C)c1Cn1cc(N2C(=O)CN(Cc3cccc(O)c3)C2=O)cn1,human blood lymphocytes,,,"600 µg/mL, 21 h",,aberrant cells with gaps,0.5%
O=c1c2ccccc2sn1-c1ccc(F)cc1,TZM-bl,viability,,,,CC50,> 100 µM
C[C@]12CC[C@@H]3c4ccc(O)cc4C[C@@H](CCCCCCCCC[S+]([O-])CCCC(F)(F)C(F)(F)F)[C@H]3[C@@H]1CC[C@@H]2O (some centres unmarked),LCC2 tamoxifen-resistant,CCK-8,,100 nM,reference: untreated,viability,94.8% and 95.2% and 84.6%
Nc1nc(NS(=O)(=O)c2ccccc2)nc(-c2ccc(Cl)cc2)c1-c1nc2ccccc2s1,BGM,cytotoxicity,,72 h,,maximum non-toxic concentration,100 µg/mL
CC(C)(O)CC(=O)NCCn1ccc2ncnc(Nc3ccc(Oc4cccc(C(F)(F)F)c4)c(Cl)c3)c21,Ba/F3 IL-3-dependent,cell proliferation,,"48 h, counter-screen",,CC50,> 10 µM
CSc1c(-c2nc3ccccc3s2)c(N)n(NS(=O)(=O)c2ccc(C)cc2)c(=O)c1C#N,BGM,,,72 h,,maximum non-toxic concentration,110 µg/mL
Cc1cc(C)c(CNC(=O)c2cc(Cl)c3c(c2C)O[C@@](C)([C@H]2CC[C@H](N(C)C)CC2)O3)c(=O)[nH]1,Caco-2,,,30 µM,,Papp A to B,0.564 ± 0.123 ×10⁻⁶ cm/s
CC(=O)OC[C@H]1O[C@@H]([S-])[C@H](OC(C)=O)[C@@H](OC(C)=O)[C@@H]1OC(C)=O.CCP(CC)CC.[Au+],MEC2,XTT,,"0.1 µM, 3 days",,cytotoxicity,not toxic
FC(F)(F)CN1CC(n2cc(Oc3ccn4nc(Cl)cc4n3)cn2)C1,Caco-2/TC7,,,20 µM,,Papp (A-B),61.8 ×10⁻⁶ cm/s
COc1cc2ncnc(Nc3ccc(Oc4ccccc4)c(C)c3C)c2cc1OC.Cl,MeWo (NF1 mutant),resazurin,,"3 µM, 72 h, unit not given, together with: trametinib",reference: DMSO,viability,0.796
Cc1ccc(-c2nc(N)nc(N)c2-c2nc3ccccc3s2)cc1,BGM,cytotoxicity,,72 h,,maximum non-toxic concentration,100 µg/mL
N#Cc1cc(C#N)c(=O)n(NS(=O)(=O)c2ccccc2)c1N,BGM,,,72 h,,maximum non-toxic concentration,90 µg/mL
Cc1ccc(S(=O)(=O)Nc2nc(N)c(-c3nc4ccccc4s3)c(-c3ccccc3)n2)cc1,BGM,cytotoxicity,,72 h,,maximum non-toxic concentration,90 µg/mL
CN1C[C@@H]2C[C@H]1CN2c1cc2c(cc1F)c(=O)c(C(=O)O)cn2C1CC1,parental MDCK-II,transepithelial transport,,"10 µM, 4 h",reference: B-A over A-B,efflux ratio,1.08 ± 0.18
Cc1ccc(S(=O)(=O)Nc2nc(N)c(-c3nc4ccccc4s3)c(-c3ccc(Cl)cc3)n2)cc1,BGM,cytotoxicity,,72 h,,maximum non-toxic concentration,100 µg/mL
O[C@H]1[C@H](OCc2cn(Cc3ccc(F)cc3)nn2)O[C@H]2[C@@H]1OC[C@H]2O,CAL-51,"cytotoxicity, CellTiter-Glo",,"up to 30 µM, 72 h",,viability,not toxic
Cc1ccc(S(=O)(=O)Oc2ccc(NC(=O)c3cnccn3)cc2)cc1,1321N1 astrocytoma,MTT,,"100 µM, 24 h",,viability,81.2 ± 0.88%
Cc1ccc(C(=O)CNc2nc(NS(=O)(=O)c3ccccc3)ncc2-c2nc3ccccc3s2)cc1,BGM,cytotoxicity,,72 h,,maximum non-toxic concentration,90 µg/mL
COc1cccc2c1C(=O)c1c(O)c3c(c(O)c1C2=O)C[C@@](O)(C(=O)CO)C[C@@H]3O[C@H]1C[C@H](N)[C@H](O)[C@H](C)O1,HFF foreskin fibroblasts,"cell viability, MTT",,"48 h, 10% FBS",,CC50,15.4 µM
COc1cccc2c1C(=O)c1c(O)c3c(c(O)c1C2=O)C[C@@](O)(C(=O)CO)C[C@@H]3O[C@H]1C[C@H](N)[C@H](O)[C@H](C)O1,BNL mouse liver cells,SRB,,"1 µM, 10% fetal bovine serum",,viability,91.7%
CSc1nc(NS(=O)(=O)c2ccccc2)nc(N)c1-c1nc2ccccc2s1,BGM,cytotoxicity,,72 h,,maximum non-toxic concentration,90 µg/mL
COc1c(C)c(OS(=O)(=O)c2ccc3ccccc3c2)c(C)c(OS(=O)(=O)c2ccc3ccccc3c2)c1C(=O)/C=C/c1ccccc1,normal human liver cell line,"cytotoxicity, SRB",,72 h,,IC50,> 50 µM
O=c1c2ccccc2sn1Cc1ccc(Cl)cc1,TZM-bl,viability,,,,CC50,> 100 µM
CCOC(=O)c1cc(C#N)c(=O)n(NS(=O)(=O)c2ccccc2)c1N,BGM,,,72 h,,maximum non-toxic concentration,90 µg/mL

# Excerpt of the above:
SMILES,cell line,assay,test system,setting,how to read,endpoint,result
C[C@]12CC[C@@H]3c4ccc(O)cc4C[C@@H](CCCCCCCCC[S+]([O-])CCCC(F)(F)C(F)(F)F)[C@H]3[C@@H]1CC[C@@H]2O (some centres unmarked),LCC2 tamoxifen-resistant,CCK-8,,100 nM,reference: untreated,viability,94.8% and 95.2% and 84.6%
Nc1nc(NS(=O)(=O)c2ccccc2)nc(-c2ccc(Cl)cc2)c1-c1nc2ccccc2s1,BGM,cytotoxicity,,72 h,,maximum non-toxic concentration,100 µg/mL
CC(C)(O)CC(=O)NCCn1ccc2ncnc(Nc3ccc(Oc4cccc(C(F)(F)F)c4)c(Cl)c3)c21,Ba/F3 IL-3-dependent,cell proliferation,,"48 h, counter-screen",,CC50,> 10 µM
CSc1c(-c2nc3ccccc3s2)c(N)n(NS(=O)(=O)c2ccc(C)cc2)c(=O)c1C#N,BGM,,,72 h,,maximum non-toxic concentration,110 µg/mL
Cc1cc(C)c(CNC(=O)c2cc(Cl)c3c(c2C)O[C@@](C)([C@H]2CC[C@H](N(C)C)CC2)O3)c(=O)[nH]1,Caco-2,,,30 µM,,Papp A to B,0.564 ± 0.123 ×10⁻⁶ cm/s
